Measured values of several laboratories.
Every numbered part comes from another study and shows a few of its results, in no order. Substitutions count along the parent as printed.

Series 1 — technique: universal PBM; form: double-stranded DNA, one strand shown; medium: in vitro; tested at: not given; reading: higher = stronger binding; endpoint: E-score
Target: Sal-like protein 4, full length isoform B (SALL4, Homo sapiens, UniProt Q9UJQ4-2, residues 1-616)
Setting: 8-mer, flanks averaged, mean of replicates
Residues (chain): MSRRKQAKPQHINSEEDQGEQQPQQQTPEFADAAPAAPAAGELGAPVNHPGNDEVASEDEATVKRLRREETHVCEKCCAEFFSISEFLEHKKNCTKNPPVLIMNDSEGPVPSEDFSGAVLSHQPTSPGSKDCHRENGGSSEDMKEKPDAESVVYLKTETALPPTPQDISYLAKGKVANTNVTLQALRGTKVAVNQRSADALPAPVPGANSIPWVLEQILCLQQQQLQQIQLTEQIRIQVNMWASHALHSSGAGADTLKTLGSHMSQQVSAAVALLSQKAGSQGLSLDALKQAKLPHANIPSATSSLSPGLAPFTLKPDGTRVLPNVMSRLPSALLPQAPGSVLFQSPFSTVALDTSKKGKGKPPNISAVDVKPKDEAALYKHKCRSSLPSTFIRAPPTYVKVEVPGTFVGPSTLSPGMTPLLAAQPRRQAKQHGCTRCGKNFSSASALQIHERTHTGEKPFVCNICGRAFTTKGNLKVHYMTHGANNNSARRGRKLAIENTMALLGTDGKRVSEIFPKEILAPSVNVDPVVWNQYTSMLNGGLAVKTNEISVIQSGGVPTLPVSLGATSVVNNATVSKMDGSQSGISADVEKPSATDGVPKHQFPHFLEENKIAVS
Strand = TAGAAAGA; value = -0.0655
Strand = AACAATGT; value = 0.209
Strand = AGTACCTA; value = 0.186
Strand = ACACGCTA; value = 0.0839
Strand = AAGACAGT; value = -0.0743
Strand = AATAAGTG; value = 0.26
Strand = CCTTCACG; value = -0.0547
Strand = ACCAAGGA; value = -0.135
Strand = CATCTGTC; value = -0.11
Strand = GTAATCGA; value = 0.0677
Strand = CTGGATGC; value = -0.318
Strand = CCTGTCCG; value = -0.259
Strand = AAACGTAG; value = 0.0938
Strand = AATTATAA; value = 0.437
Strand = CTCGAACA; value = 0.0299
Strand = ACTTCCCC; value = -0.0993
Strand = CCCAATCG; value = -0.181
Strand = GGGGAGAC; value = -0.227
Strand = GCGTAGTA; value = -0.029
Strand = CTCCTTCA; value = -0.00685
Strand = CGGTGCGC; value = -0.356
Strand = ACGTACCT; value = 0.0118
Strand = ACGGTGAT; value = -0.0649

Series 2 — technique: RNA Bind-n-Seq; form: RNA; medium: in vitro; tested at: 200 nM; setting: whole 134-nt RNA, ends assumed; added: 150 mM KCl; reference: input library; reading: higher = stronger binding; endpoint: log2 enrichment
Target: Ras GTPase-activating protein-binding protein 1, full length (G3BP1, Homo sapiens, UniProt Q13283)
UniProt Q13283, sequence (whole entry, looked up): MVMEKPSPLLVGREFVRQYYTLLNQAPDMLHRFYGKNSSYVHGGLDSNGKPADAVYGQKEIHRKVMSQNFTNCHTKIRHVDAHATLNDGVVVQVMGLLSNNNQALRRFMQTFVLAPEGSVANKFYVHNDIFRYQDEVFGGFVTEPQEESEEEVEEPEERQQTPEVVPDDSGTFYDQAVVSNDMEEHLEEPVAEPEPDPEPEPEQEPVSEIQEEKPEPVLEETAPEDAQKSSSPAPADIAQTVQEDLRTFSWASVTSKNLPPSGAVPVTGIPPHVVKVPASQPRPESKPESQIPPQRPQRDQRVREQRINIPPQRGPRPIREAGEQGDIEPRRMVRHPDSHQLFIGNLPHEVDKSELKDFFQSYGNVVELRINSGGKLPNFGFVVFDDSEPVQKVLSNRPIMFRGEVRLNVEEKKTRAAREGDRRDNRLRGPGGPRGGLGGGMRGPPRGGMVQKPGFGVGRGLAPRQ
All sequences stand within: GGGAGUUCUACAGUCCGACGAUC … UGGAAUUCUCGGGUGUCAAGG
Strand = UGCAGAUUGAUGAGUAUGAUCACUCCAAGCCCAUCCAGGGGCAACAGAAGAAGCCCUUUGAGGUGCACUGGAGGAAGCACACCCUGUCCU; value = -1.81
Strand = UGGCGCUGGUGGCAUGCGGGGAGGAAGAGGUGGCCUCAUGGAUCGUGGUGGUCCCGGUGGAAUGUUCAGAGGUGGCCGUGGUGGAGACAG; value = 0.62
Strand = UGUGCUACACAUCGUAUGUACCGAAUCGGGAAAAAAAGGGAAAAAAAGGGGAAAAAAAGGGGAAAGUAUUAUGUUACGCCGUUCGGAUCU; value = -0.618
Strand = CAAGUCCUGUGCUACACAUCGUAUGUACCGAAUCGGGGUGGGGUGGGGAAAGGGGAAAGUAUUAUGUUACGCCGUUCGGAUCUGCACUUC; value = 1.19
Strand = UAACUUUAGAGGAGGAUCUGAUGGAUAUGGGAGUGGACGUGGAUUUGGGGAUGGCUAUAAUGGGUAUGGAGGAGGACCUGGAGGUGGCAA; value = 0.473
Strand = AAGUCCUGUGCUACACAUCGUAUGUACCGAAUCAAAUUUUUAAACCCAAACCCAAAAAAGUAUUAUGUUACGCCGUUCGGAUCUGCACUU; value = -0.622
Strand = UGUGUUGUGCUCAUUACCAGUGCAGCGACUGCCGUCCCAGGGUGACUCUGAGUUGUCCUUUAUCGUGAGCUAGCAAUGGCUAGCGAAGAC; value = -1.99
Strand = UAGUAACAGGGGUGAAGAUGCCUUUUGUGAUCCUGAAGAUGAAUGGGAACCCGACAUUACAGAUGCACCAGUUUCUUCACUUUCUAGAAG; value = -1.6
Strand = ACCACUGCUACAGUCACCACCACCCAGGCCUCCUAUGCAGCUCAGUCUGCAUAUGGCACUCAGCCUGCUUAUCCAGCCUAUGGGCAGCAG; value = -0.0676
Strand = CUCAAGUCCUGUGCUACACAUCGUAUGUACCGAAUCGGGUUGGGUUGGUUGGGAAAGUAUUAUGUUACGCCGUUCGGAUCUGCACUUCCA; value = 0.67
Strand = UUGUGGGAGGAUUUUGAGAUACUUAUUCUUUAUUUGAGCCAGUCUUGCAAGGUUAACUUCUCACUGGGCCUAGUGUGGUGCCCAGGUUUU; value = -1.81
Strand = UGGGAGGUGGAUUUUGUUUAUUUUUUUAGCUCAUUUCCAGGGGUGGGAAUUUUUUUUUAAUAUCUGUCAUGAAUAAAGUUGUUUUUGAAA; value = 0.189
Strand = GCAGGAAGUAAAAACAAAUGGAAAUGCUUCGGAUAGUGGCAGGAGUGGGGGUUGCUAAGGAAAGGGUGGGAUGGGAGUGGGUAAAGAGUU; value = 0.965
Strand = UGGGAGGUGGAUUUUGUUUAUUUUUUUAGCUCAUUUCCAGGGGUGGGAAUUUUUUUUUAAUAUGUGUCAUGCAUAAAGUUGUUUUUGAAA; value = 0.181

Series 3 — technique: RNAcompete; form: RNA; medium: in vitro; tested at: 20 nM; setting: 7-mer, probes averaged, single round; reference: mean of 7-mers; reading: higher = stronger binding; endpoint: 7-mer Z-score
Target: PABPC1L2, full length, GST fusion (mouse, UniProt A0ABA7IW68)
Construct (chain): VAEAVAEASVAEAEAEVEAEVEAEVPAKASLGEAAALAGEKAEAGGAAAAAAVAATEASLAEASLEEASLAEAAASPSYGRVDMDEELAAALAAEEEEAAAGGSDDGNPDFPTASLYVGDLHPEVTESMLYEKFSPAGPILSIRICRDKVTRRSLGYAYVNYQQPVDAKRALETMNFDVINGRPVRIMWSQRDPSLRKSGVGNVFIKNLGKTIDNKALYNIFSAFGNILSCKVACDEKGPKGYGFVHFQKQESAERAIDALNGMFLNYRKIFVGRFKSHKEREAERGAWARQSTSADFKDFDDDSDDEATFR
Strand = AGUUUGA; value = -0.365
Strand = GACUACU; value = -0.0156
Strand = CGCGGAC; value = -0.0482
Strand = CGCGGCC; value = -0.242
Strand = ACAGGAA; value = 0.276
Strand = CUACGAU; value = -0.128
Strand = GUAGCUC; value = -0.275
Strand = GUUCACU; value = -0.331
Strand = AGGGAAG; value = 0.323
Strand = GAACAGG; value = 0.224
Strand = GUUUAGG; value = -0.175
Strand = ACUCACA; value = -0.166
Strand = UCCUGAA; value = -0.173
Strand = AUUACGA; value = 0.0297
Strand = UCGGGUU; value = -0.213
Strand = AGAGUUU; value = -0.412
Strand = GGUCCAC; value = -0.208
Strand = UACCGUU; value = -0.202
Strand = GCCACAA; value = 0.129
Strand = CGAUCAA; value = -0.0174

Series 4 — technique: DHFR PCA, deep sequencing; medium: yeast; added: (+)-ABA 200 µM; reference: wild-type fitted maximum; reading: higher = stronger binding; endpoint: relative binding score
Target: ABI1, truncated, D143A, DHFR fusion (Arabidopsis thaliana)
Setting: methotrexate growth selection, single substitutions
Starting sequence: PYL1, truncated, DHFR fusion (Arabidopsis thaliana); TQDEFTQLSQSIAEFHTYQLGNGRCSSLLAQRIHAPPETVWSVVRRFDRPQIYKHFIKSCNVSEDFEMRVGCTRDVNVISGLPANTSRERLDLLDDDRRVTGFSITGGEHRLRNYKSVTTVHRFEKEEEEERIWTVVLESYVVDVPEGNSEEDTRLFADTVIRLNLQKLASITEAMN; partner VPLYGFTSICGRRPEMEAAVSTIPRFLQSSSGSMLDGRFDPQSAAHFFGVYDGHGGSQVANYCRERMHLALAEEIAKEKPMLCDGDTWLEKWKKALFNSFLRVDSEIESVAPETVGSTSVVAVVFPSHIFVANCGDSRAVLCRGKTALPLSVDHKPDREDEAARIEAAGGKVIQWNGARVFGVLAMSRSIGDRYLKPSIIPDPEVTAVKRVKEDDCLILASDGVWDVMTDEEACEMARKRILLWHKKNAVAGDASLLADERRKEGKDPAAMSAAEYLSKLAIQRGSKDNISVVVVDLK
Variant = S80N; value = 66.4%
Variant = R74E; value = 12.4%
Variant = S42V; value = 77.2%
Variant = R90S; value = 83.4%
Variant = V76G; value = -3.61%
Variant = S11T; value = 90.2%
Variant = R90P; value = 1.18%
Variant = A84C; value = 86.4%
Variant = V76W; value = 12.2%
Variant = S42F; value = 68.9%
Variant = D97H; value = 103%
Variant = K126A; value = 108%
Variant = E89Q; value = 16.9%
Variant = V76C; value = 99.9%
Variant = I172S; value = 63.2%
Variant = R69I; value = 105%
Variant = D153M; value = 18%
Variant = V62W; value = 74.8%
Variant = N22P; value = 101%
Variant = N177L; value = 100%

Series 5 — technique: RNA Bind-n-Seq; form: RNA; medium: in vitro; tested at: 365 nM; reference: no-protein control; reading: higher = stronger binding; endpoint: RBNS enrichment (R)
Target: RNA binding protein fox-1 homolog 2, RRM domain, GST-SBP tag (RBFOX2, Homo sapiens, UniProt O43251-10, residues 100-194)
Setting: natural RNA segment, single round, ends assumed
All sequences stand within: GGGAGUUCUACAGUCCGACGAUC … UGGAAUUCUCGGGUGCCAA
Residues (chain): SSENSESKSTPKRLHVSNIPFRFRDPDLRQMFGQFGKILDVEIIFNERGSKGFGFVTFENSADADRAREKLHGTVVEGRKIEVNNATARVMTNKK
Strand = AGGGAUCCCGUUUCAUGCUGAAGGCCGGCACCCCUGUUCUUAAUGGGUAAGAAUUUCCGCUCCUACUUGCUAGAUCUGCGAAAUACUAGCACUCCUUUCAAGGGUGUUGG; value = 0.236
Strand = GUAGCAAGACCCCCUCCUCCCCUCUACCACCCCCCCCAAGGGUCCAGGGGUCCUACUCGCUUCCCCCCUGCUCAUACCUUGCCUAUGGAGACAUGAGAGGGCAGAAUCCU; value = 0.421
Strand = GUUGAGGGUCACCACAACAUGAGGAACUAUAUUAAAGACUCGUGGCAUUAGGAAGGUUGAGAACCACUUCUCUAGGGCUCAAUGUAUUAGAUAACUCACUAAGGGGUAAA; value = 0.347
Strand = UGAGACCGGUCUGUGGCUGUGGGCCCCUUGGUGACCCGCUGCUCUUUUGGAAAUGGGUGACCUGAAGUGACACUUUUUCCACAAUUAACCCAAGUUGUGUUAAUACUUCA; value = 0.213
Strand = AAUCAAGAGCUGAAGGCCAGUGUUGAGAGACAUGCCUAGUGGCCUUUGCAGAGACGUGGGGAUCAAGCCCAGGAGGGAGGGGAGUGUCGCUCUCCCACGCCUGGACUGAG; value = 0.289
Strand = CAGGCAGGGAGUGGAGCUAACAGCUUAGUCACCAGGACCCCCAGACCUGCAAACGUCCCCUCCUGGAAGGGGAAGCCAGGAACAGCAGAACUGCCCACAAAACAAGGCUG; value = 0.516
Strand = ACACCACACCAGCUUGUUGGUUCCUGAUGGUUUUCUUAGACUUCUCCGCUCCCCCCACAUCCCAGCCUGGACUUCUCCUGAGUAUGGGGCUUUUUCUGGCAGCCAGAAGC; value = 0.279
Strand = UUUAUGCUUUGAAAGCUCUCGAGUUGUUAAAGAAAAUGUAUAUCUCGAAUAGAGAAGGGGAAACUCCUUGAAUUUCUAGGUUUAAAAAGGAACUUUUAAAUUCCUUAAUG; value = 0.718
Strand = UUCACAGGCCAUUUCUGUGAACCCUACUCCAUUGUGGUUUCUGCCACUAUCAAAGUUCCAGCUACCUGCAAGGUGAAGGAAGGCAUCCCUUUUGGGGCAUGCACUUUCUU; value = 0.17
Strand = CAGCCCAGGAUGGGAGUAGGGUAUGCCAUAUCCCACAGGGGCUAUGAGUAGGUACCAGAUACCAACUCAGUAAUUAAUUUUGUAGCAUUGUCCCCAAGCUCUGGAUUUUU; value = 0.418
Strand = GCGUUGUAGAAGAAGUGAGAUGUAGUAAGCUAAUUAACAGACUUUCUAGCAGUUCUUUUUGUGAUGUCUCUUUGUUAAUCUGAGUCUAUCUAUUUUCGGCAAUAAGGUAA; value = 0.738
Strand = CCUGGCCACUGAUGGCUGAGUUUUAUGGCAAGAGGCUGAGAUGGGCACAGGGAGCCACUGAGGGUCACCCUGCCUUCCUCCUUGCUGGCCCAGCUGCUGUUUAUUUAUGC; value = 0.565
